# Results gathered from unrelated publications.
# Each line is one published result; not all experiments were run side by side. Several values in a cell are separate wells, animals, samples, runs or records. ± marks the error that the study gave.
Compound,test,test system,setting,how to read,endpoint,value
COc1ccc2c(c1)c(CC(=O)OCC(=O)OC(C)(C)C)c(C)n2C(=O)c1ccc(Cl)cc1,hot plate test,BALB/c mice,"75 mg/kg, 30 min",,latency of nociceptive response,14.8 ± 0.53 s
CC[C@H]1[C@@H](O)[C@@H]2[C@H](CC[C@]3(C)[C@@H]([C@H](C)CCOS(=O)(=O)[O-])CC[C@@H]23)[C@@]2(C)CC[C@@H](O)C[C@@H]12.[Na+],histology,"ob/ob NASH mouse model, liver","oral, 3 mg/kg once daily, before treatment, baseline of 8 week study, scale 0 to 2",direction not given,ballooning score,0.7 ± 0.1
Clc1ccc(C(c2c[nH]c3ccccc23)c2c[nH]c3ccccc23)cc1,"Western blot, refers to: Nurr1","mice, MPTP/probenecid Parkinson model, striatum",dose not given,baseline: control,protein level,77.2% and ~80%
COc1ccc(C(=O)CSc2nnc(COCCn3c([N+](=O)[O-])cnc3C)o2)cc1F,,,"75 µg/mL, 45 min",,DPPH scavenging,67.76 ± 0.29%
N#Cc1ccc(-c2cc(=O)c3ccc4[nH]c(C(F)(F)F)nc4c3o2)cc1,Morris water maze,5xFAD mice,"dose not given, 5 acquisition days",baseline: vehicle,latency AUC,decreased
COc1ccc(C2CC(c3ccc(C)cc3)=Nc3ccccc3S2)cc1OC (stereo not shown),,"Wistar rat, STZ-induced diabetes","oral, 10 mg/kg once daily, day 14",,blood glucose,188 mg/dL
CCCC[C@H](NC(=O)[C@@H](NC(=O)[C@H](CC(=O)O)NC(=O)[C@H](CCC(N)=O)NC(=O)[C@H](CC(C)C)NC(=O)[C@H](CC(C)C)NC(=O)[C@H](CCCN)NC(=O)[C@H](CCCNC(=N)N)NC(=O)[C@H](C)NC(=O)[C@H](CO)NC(=O)[C@H](CC(C)C)NC(=O)[C@H](CCC(N)=O)NC(=O)[C@H](CC)NC(=O)[C@H](CC(C)C)NC(=O)[C@@H](NC(=O)[C@H](CCCN)NC(=O)[C@H](CCCNC(=N)N)NC(=O)[C@H](Cc1ccc(O)cc1)NC(=O)[C@H](CO)NC(=O)[C@H](CCC(N)=O)NC(=O)[C@@H](NC(=O)[C@H](Cc1ccccc1)NC(=O)[C@@H](NC(=O)[C@H](C)NC(=O)[C@H](CC(=O)O)NC(=O)[C@H](C)NC(=O)[C@H](Cc1ccc(O)cc1)NC)[C@@H](C)CC)[C@@H](C)O)C(C)C)[C@@H](C)CC)C(=O)N[C@@H](CC(=O)O)C(=O)NCCCCNC(=N)N,"GH release, ELISA","male Sprague-Dawley rat, anaesthetised, serum","subcutaneous, 3 µg/kg, 30 min",,serum GH level,152 ± 21.8 ng/mL
Cc1cc2c(cc1C1(c3ncc(C(=O)O)cn3)CC1)C(C)(C)CCC2(C)C,"RNA sequencing, refers to: Acot1 mRNA","rat, brain","dose not given, 24 h, single dose",baseline: vehicle,log2 fold change,-0.65
CCc1nc(-c2ccc(-c3ccc(CCC(N)(CO)CO)cc3)cc2)co1,,"Sprague-Dawley rat, peripheral blood lymphocytes","oral, 0.3 mg/kg, single dose",,maximal inhibition of PBLs,25%
COc1c2c(cc3oc(CO)cc(=O)c13)O[C@H](C(C)(C)O)C2,analgesia,mouse,"oral, 1 mg/kg, 1.5 h",,hot plate latency,11.8 ± 1.3 s
Cc1ncc([N+](=O)[O-])n1CCOCc1nnc(SCC(=O)c2ccc([N+](=O)[O-])cc2)o1,,,"75 µg/mL, 45 min",,DPPH scavenging,62.3 ± 0.2%
CCCC[C@H](NC(=O)[C@@H](NC(=O)[C@H](CC(=O)O)NC(=O)[C@H](CCC(N)=O)NC(=O)[C@H](CC(C)C)NC(=O)[C@H](CC(C)C)NC(=O)[C@H](CCCN)NC(=O)[C@H](CCCNC(=N)N)NC(=O)[C@H](C)NC(=O)[C@H](CO)NC(=O)[C@H](CC(C)C)NC(=O)[C@H](CCC(N)=O)NC(=O)[C@H](CC)NC(=O)[C@H](CC(C)C)NC(=O)[C@@H](NC(=O)[C@H](CCCN)NC(=O)[C@H](CCCNC(=N)N)NC(=O)[C@H](Cc1ccc(O)cc1)NC(=O)[C@H](CO)NC(=O)[C@H](CCC(N)=O)NC(=O)[C@@H](NC(=O)[C@H](Cc1ccccc1)NC(=O)[C@@H](NC(=O)[C@H](C)NC(=O)[C@H](CC(=O)O)NC(=O)[C@@H](C)NC(=O)[C@H](Cc1ccc(O)cc1)NC)[C@@H](C)CC)[C@@H](C)O)C(C)C)[C@@H](C)CC)C(=O)N[C@@H](CC(=O)O)C(=O)N[C@@H](CCCNC(=N)N)C(=O)NCC,"GH release, ELISA","male Sprague-Dawley rat, anaesthetised, serum","subcutaneous, 3 µg/kg, 30 min",,serum GH level,126 ± 15.8 ng/mL
CC[C@H](C)[C@H](NC(=O)[C@H](Cc1c[nH]cn1)NC(=O)[C@@H]1CSSC[C@H](NC(=O)[C@H](Cc2c[nH]cn2)NC(=O)[C@H](Cc2ccccc2)NC(=O)CCC(C(=O)O)N2CCN(CC(=O)O)CCN(CC(=O)O)CC2)C(=O)N2C[C@H](O)C[C@H]2C(=O)N[C@@H](Cc2ccc(O)c(Cl)c2)C(=O)N[C@@H](CC(=O)O)C(=O)N[C@@H](CC(C)C)C(=O)N1)C(=O)N[C@@H](CC(C)C)C(=O)NCc1ccc(CNC(=O)CCC(C(=O)O)N2CCN(CC(=O)O)CCN(CC(=O)O)CC2)cc1 (stereo partly shown) [gallium-68 labelled],PET/SPECT imaging,"rat, carotid crush thrombosis model",30 to 90 min post-injection,baseline: thrombus over contralateral carotid,thrombus to contralateral ratio,> 4 fold
CCOC(=O)c1cc2c(N)c(C(=O)OC)sc2nc1C,,urea transporter knockout mice,"subcutaneous, 100 mg/kg, 12 h",,urine volume,no effect
CC[C@H](C)[C@H](NC(=O)[C@H](CC(N)=O)NC(=O)[C@H](CC(N)=O)NC(=O)[C@H](CCCNC(=N)N)NC(=O)[C@H](CC(N)=O)NC(=O)[C@H](CCCNC(=N)N)NC(=O)[C@H](CCCCN)NC(=O)[C@@H](NC(=O)[C@H](CC(N)=O)NC(=O)[C@H](CCSC)NC(=O)[C@H](CC(C)C)NC(=O)[C@H](Cc1c[nH]c2ccccc12)NC(=O)[C@H](CCC(N)=O)NC(=O)[C@@H](NC(=O)[C@H](Cc1ccccc1)NC(=O)[C@H](CC(=O)O)NC(=O)[C@H](CCC(N)=O)NC(=O)[C@H](C)NC(=O)[C@H](CCCNC(=N)N)NC(=O)[C@H](CCCNC(=N)N)NC(=O)[C@H](CO)NC(=O)[C@H](CC(=O)O)NC(=O)[C@H](CC(C)C)NC(=O)[C@H](Cc1ccc(O)cc1)NC(=O)[C@H](CCCCN)NC(=O)[C@H](CO)NC(=O)[C@H](Cc1ccc(O)cc1)NC(=O)[C@H](CC(=O)O)NC(=O)[C@H](CO)NC(=O)[C@@H](NC(=O)[C@H](Cc1ccccc1)NC(=O)[C@@H](NC(=O)CNC(=O)[C@H](CCC(=O)O)NC(=O)[C@@H](CO)NC(=O)[C@@H](N)Cc1c[nH]cn1)[C@@H](C)O)[C@@H](C)O)C(C)C)[C@@H](C)O)C(=O)N[C@@H](C)C(=O)N[C@@H](CSCC(=O)NCCOCCOCCOCCOCCC(=O)O[C@H]1CC[C@@]2(C)C(=CC[C@H]3[C@@H]4CC[C@H]([C@H](C)CCCC(C)C)[C@@]4(C)CC[C@@H]32)C1)C(N)=O,,"diet-induced obese mice, plasma","subcutaneous, 1.9 µmol/kg, 14 days, chronic dosing",,leptin level,19 ± 1 ng/mL
O=[N][Fe]1([N]=O)[S](CCO)[Fe]([N]=O)([N]=O)[S]1CCO,"western blot, refers to: Iba1","aged C57BL/6JNarl mice on Western diet, hippocampus",dose not given,baseline: Western diet alone,protein level,no effect
CCCCCCCOC(=O)Cc1c(C)n(C(=O)c2ccc(Cl)cc2)c2ccc(OC)cc12,,"BALB/c mice, acetic acid writhing","intraperitoneal, 20 mg/kg, 20 min count",,writhing count,13.7 ± 1.67
CCNC(=O)OCc1c(COC(=O)NCC)c(-c2ccc(OC)cc2)n2c1Cc1ccccc1-2,histopathology,mice with NCI-H460 xenograft,"dose not given, day 29",,lung metastasis,67%
CCCCCCOC(=O)Cc1c(C)n(C(=O)c2ccc(Cl)cc2)c2ccc(OC)cc12,hot plate test,BALB/c mice,"75 mg/kg, 120 min",,latency of nociceptive response,16.3 ± 1.01 s
O=c1c(OCc2ccccc2)c(-c2ccc(Cl)cc2)oc2ccccc12,,diabetic rat,"5 mg/kg, p-nitrophenyl β-glucoside induced",,serum alkaline phosphatase,184 ± 4.09 IU
CCCC[C@H](NC(=O)[C@@H](NC(=O)[C@H](CC(=O)O)NC(=O)[C@H](CCC(N)=O)NC(=O)[C@H](CC(C)C)NC(=O)[C@H](CC(C)C)NC(=O)[C@H](CCCN)NC(=O)[C@H](CCCNC(=N)N)NC(=O)[C@H](C)NC(=O)[C@H](CO)NC(=O)[C@H](CC(C)C)NC(=O)[C@H](CCC(N)=O)NC(=O)[C@H](CC)NC(=O)[C@H](CC(C)C)NC(=O)[C@@H](NC(=O)[C@H](CCCN)NC(=O)[C@H](CCCNC(=N)N)NC(=O)[C@H](Cc1ccc(O)cc1)NC(=O)[C@H](CO)NC(=O)[C@H](CCC(N)=O)NC(=O)[C@@H](NC(=O)[C@H](Cc1ccccc1)NC(=O)[C@@H](NC(=O)[C@H](C)NC(=O)[C@H](CC(=O)O)NC(=O)[C@@H](C)NC(=O)CCc1ccc(O)cc1)[C@@H](C)CC)[C@@H](C)O)C(C)C)[C@@H](C)CC)C(=O)N[C@@H](CC(=O)O)C(=O)N[C@H](CCCNC(=N)N)C(=O)NC,"GH release, ELISA","male Sprague-Dawley rat, anaesthetised, serum","subcutaneous, 3 µg/kg, 0 min",,serum GH level,24.6 ± 5.3 ng/mL
O=c1c(OCc2ccccc2)c(-c2cccc([N+](=O)[O-])c2)oc2ccccc12,,diabetic rat,"7.5 mg/kg, p-nitrophenyl β-glucoside induced",,serum alkaline phosphatase,206 ± 4.72 IU
CCOP(=O)(CC(=O)Nc1ccc(S(=O)(=O)N(CC(N)=O)c2ccc(N(CC(N)=O)S(=O)(=O)c3ccc(OC)cc3)c3ccccc23)cc1)OCC,"western blot, refers to: BACE1","APP/PS1 mice, hippocampus and frontal cortex","40 mg/kg, 2 months daily",,protein level,decreased
Cc1ccc(CN2C(=O)/C(=N\c3ccc(Cl)cc3Br)c3ccccc32)cc1,flow cytometry,"mouse tumour model, tumour tissue","ip, 10 mg/kg",,M2 macrophages in TAMs,18.9%
CC(C)(O)c1ccc(N2Cc3c(ccnc3-c3ccc(F)cc3OCC(F)(F)F)C2=O)cc1,,"Gaucher disease mouse model, plasma","30 mg/kg, single dose",baseline: vehicle,glucosylsphingosine level,88 ± 4%

# A few entries again:
Compound,test,test system,setting,how to read,endpoint,value
CC(C)(O)c1ccc(N2Cc3c(ccnc3-c3ccc(F)cc3OCC(F)(F)F)C2=O)cc1,,"Gaucher disease mouse model, plasma","30 mg/kg, single dose",baseline: vehicle,glucosylsphingosine level,88 ± 4%
CC[C@H]1[C@@H](O)[C@@H]2[C@H](CC[C@]3(C)[C@@H]([C@H](C)CCOS(=O)(=O)[O-])CC[C@@H]23)[C@@]2(C)CC[C@@H](O)C[C@@H]12.[Na+],histology,"ob/ob NASH mouse model, liver","oral, 3 mg/kg once daily, before treatment, baseline of 8 week study, scale 0 to 2",direction not given,ballooning score,0.7 ± 0.1
